Results from different studies.
Compare with care: the assays were run in different laboratories. ± gives the spread as reported.

Molecule	assay	system	conditions	how to read	measurement	value
NC(=O)[C@H](CCC(=O)O)NC(=O)[C@H](CCC(=O)O)NC(=O)[C@H](Cc1cc(-c2ccc(-c3cccc(Cl)c3)cc2)no1)CP(=O)(O)c1ccc(Br)cc1	item: PCNA	high-fat-fed apoE-knockout mice, brachiocephalic plaque	dose not given	–	proliferating macrophages	23.7 ± 4%
NCCCC[C@@H]1NC(=O)[C@@H](Cc2c[nH]c3ccccc23)NC(=O)[C@H](c2ccccc2)NC(=O)[C@@H]2C[C@@H](OC(=O)NCCN)CN2C(=O)[C@H](Cc2ccccc2)NC(=O)[C@H](Cc2ccc(OCc3ccccc3)cc2)NC1=O	item: GH AUC	healthy volunteers	subcutaneous, together with: GHRH	–	ED50	70.7 µg
O=C1CSC(NN=C2c3ccccc3-c3nc4cc(F)ccc4nc32)=N1	–	mouse, STZ-induced diabetes	oral, 25 mg/kg, day 3	–	blood glucose	478 ± 44.7 mg/dL
CC(C)C[C@H](NC(=O)[C@H](CO)NC(=O)[C@H](CCCNC(=N)N)NC(=O)[C@H](CC(=O)O)NC(=O)[C@H](CCC(=O)O)NC(=O)[C@H](C)NC(=O)[C@@H]1CCCN1C(=O)[C@H](C)NC(=O)[C@H](CCC(=O)O)NC(=O)[C@@H]1CCCN1C(=O)[C@@H]1CCCN1)C(N)=O	HPLC-EC	F344 rat, normal, striatum, wet tissue, both hemispheres	intranasal, 100 µg, 5 days/week for 3 weeks	–	dopamine level	9040 ± 1430 ng/g
CCCCc1ncc(CO)n1Cc1ccc(-c2ccccc2-c2nn[nH]n2)cc1	–	mouse DSS colitis	transanal, 100 mg/kg/day	–	time to heme-positive stool	7 ± 1.4 days
ILPWKWPWWPWRR	carboxyfluorescein release	peptide, EYPG vesicles	10 µg/mL, 250 s, pH 7.4, 25 °C	baseline: Triton X-100	leakage	18%
CC12CCC(CC1=O)C2(C)C (stereo not drawn)	two-choice feeding trial	Sylvilagus nuttallii	1% dry weight in diet, 72 h, together with: monoterpene mixture 1% dry weight	–	proportion of food consumed	31 ± 0.08%
CC(C)(Sc1ccncc1-c1ccc(C#N)c2ccccc12)C(=O)O	–	male gout patients, urine	300 mg, 0 to 24 h, together with: verinurad 10 mg alone or combined	baseline: baseline	urinary uric acid excretion	9.88%
AGEDPHGYFLPGQFA	–	peptide, C57BL/6J mouse, zymosan peritonitis	ip, 8 pg/mouse, dosed 1 h before zymosan, together with: zymosan 10 µg	–	time of peak neutrophilia	2 h
Cc1c(C(=O)O)ccc2c3n(nc12)[C@@H]1[C@H](C3)N(CC2CC2)[C@@]2(C(=O)Nc3cc(Cl)ccc32)[C@H]1c1cccc(Cl)c1F	RECIST v1.1	human	80 mg reduced to 45 mg every 3 weeks	–	maximum tumour shrinkage	-73%
CC[C@@H]1CN(C(=O)NCC(F)(F)F)C[C@@H]1c1cnc2cnc3[nH]ccc3n12	IGA response	human, atopic dermatitis, plasma average concentration	week 16	–	EC50	0.0128 µg/mL
O=C(NC[C@H]1CN(c2ccc(N3CCOCC3=O)cc2)C(=O)O1)c1ccc(Cl)s1	prothrombin time, population PK/PD Emax model	human, plasma	–	–	EC50	0.418 µg/mL
COc1ccccc1Oc1c(NS(=O)(=O)c2ccc(C(C)(C)C)cc2)nc(-c2ncccn2)nc1OCCO	–	human	dose not given	–	mean pulmonary arterial pressure	63 mmHg
CC1(C)CCC(CN2CCN(c3ccc(C(=O)NS(=O)(=O)c4ccc(NCC5CCOCC5)c([N+](=O)[O-])c4)c(Oc4cnc5[nH]ccc5c4)c3)CC2)=C(c2ccc(Cl)cc2)C1	cell kill, PI exclusion flow cytometry	normal CD3+ T lymphocytes, dog, peripheral blood	24 h	–	EC50	525 ± 650 nM
CCOC(=O)[C@H](C)C[C@@H](Cc1ccc(-c2ccccc2)cc1)NC(=O)CCC(=O)O	–	female C57BL/6JRj mice	oral, 0.7 nmol/g, 10 min, together with: amino acids 34 mg oral	baseline: vehicle	increase in glucagon response	41%
Neuropeptide Y	–	wild-type mouse, liver	dose not given	baseline: untreated	Col1a1 mRNA level	increased
CC(=O)Nc1cccc(OCc2nnc(SCc3cccc(C(F)(F)F)c3)o2)c1	forced swimming test	mice	40 mg/kg, 0.5 h	baseline: control	immobility duration decrease	46.8%
CC(C)OC(=O)C(C)(C)Oc1ccc(C(=O)c2ccc(Cl)cc2)cc1	hepatic PPAR target gene induction	Sprague Dawley rats, diet-induced dyslipidemia, liver	together with: ACC inhibitor	–	dose	≥ 5 mg/kg
CC(C)n1cnc(-c2ccc(F)cc2)c1-c1ncc(C(=O)Nc2ccc(N3CCN(C)CC3)cc2)[nH]1	Olink proteomics	IPF patients, serum	30 mg once daily, adjusted p below 0.05, unit not given	baseline: placebo	differentially abundant proteins	1
hen egg-white lysozyme	IL-2 secretion	Iso.187 T cell hybridoma, B10.BR mouse	overnight, together with: M12.C3.F6 antigen-presenting cells	–	highest concentration without response	> 30 µM
Cc1ccc(S(=O)(=O)NC(=O)NN2CC3CCCC3C2)cc1 (stereo not drawn)	–	mouse, STZ-induced diabetes	oral, 25 mg/kg, day 3	–	blood glucose	358 ± 18.1 mg/dL
NC(=O)c1nc(F)c[nH]c1=O	–	pooled human liver S9	up to 3000 µM, together with: acetaminophen 2 mM	–	acetaminophen glucuronidation inhibition	no effect
CCCCSc1nnc(COc2ccc3c(c2)NC(=O)CC3)o1	forced swimming test	mice	40 mg/kg, 0.5 h	baseline: control	immobility duration decrease	15.6%
CS/C(S)=N/CCCC[S+](C)[O-] (racemic)	RT-PCR, item: Arnt	rat, liver	oral gavage, 200 mg/kg, 96 h, dosed for four days	baseline: vehicle	mRNA fold change	0.586
CCOc1ccc(NC(=S)N(CCO)Cc2cc3cc(C)cc(C)c3[nH]c2=O)cc1	–	mouse, indomethacin-induced intestinal injury	oral, 10 µg/mouse twice daily, 2 days, together with: indomethacin 10 mg/kg ip	–	reduction of intestinal ulcers	90%
COc1ccc2c(c1)c(CC(=O)O)c(C)n2C(=O)c1ccc(Cl)cc1	multiplex bead immunoassay, item: IL-13	CD-1 mice, serum	ip, 20 mg/kg, three-injection regimen, together with: LPS 3 mg/kg	–	cytokine level	104 ± 9.5 pg/mL
CCCCCCCCCCCCCCCC(=O)NCCCC[C@H](NC(=O)[C@H](CCC(=O)O)NC(=O)[C@H](CCC(=O)O)NC(=O)[C@H](Cc1ccc(O)cc1)NC(=O)[C@H](CCC(=O)O)NC(=O)CCCCCNC(=S)Nc1ccc2c(c1)C(=O)OC21c2ccc(O)cc2Oc2cc(O)ccc21)C(=O)N[C@@H](Cc1ccc(O)cc1)C(=O)N[C@@H](CCC(=O)O)C(=O)NCC(=O)NCC(=O)NCC(=O)NCC(=O)N[C@@H](CO)C(=O)NCC(=O)NCC(=O)NCC(=O)NCC(=O)N[C@@H](CO)C(=O)N[C@@H](Cc1ccccc1)C(=O)N[C@@H](CC(N)=O)C(=O)N1CCC[C@H]1C(=O)N[C@@H](CCCNC(=N)N)C(=O)N[C@@H](Cc1c[nH]cn1)C(=O)NC(C)(C)C(=O)N[C@@H](CCC(=O)O)C(=O)NCC(=O)N[C@H](C(=O)N[C@@H](Cc1ccccc1)C(=O)N[C@H](C(=O)N[C@@H](CO)C(=O)N[C@@H](CC(=O)O)C(=O)N[C@H](C(=O)N[C@@H](CO)C(=O)N[C@@H](CO)C(=O)N[C@@H](Cc1ccc(O)cc1)C(=O)N[C@@H](CC(C)C)C(=O)N[C@@H](CCC(=O)O)C(=O)NCC(=O)N[C@@H](CCC(N)=O)C(=O)N[C@@H](C)C(=O)N[C@@H](C)C(=O)N[C@@H](CCCCN)C(=O)N[C@@H](CCC(=O)O)C(=O)N[C@@H](Cc1ccccc1)C(=O)N[C@H](C(=O)N[C@@H](C)C(=O)N[C@@H](Cc1c[nH]c2ccccc12)C(=O)N[C@@H](CC(C)C)C(=O)N[C@H](C(=O)N[C@@H](CCCCN)C(=O)NCC(=O)N[C@@H](CCCNC(=N)N)C(=O)NCC(=O)O)C(C)C)[C@@H](C)CC)C(C)C)[C@@H](C)O)[C@@H](C)O	–	db/db mouse	subcutaneous, 30 nmol/kg, 0.5 h before glucose, AUC 0-120 min, together with: oral glucose 2.0 g/kg	baseline: saline	glucose reduction	36.3%
CCC1=C[C@@H]2CN(C1)Cc1c([nH]c3ccccc13)[C@@](C(=O)OC)(c1cc3c(cc1OC)N(C)[C@H]1[C@@](O)(C(=O)OC)[C@H](OC(C)=O)[C@]4(CC)C=CCN5CC[C@]31[C@@H]54)C2	overall survival	mice, HT-29 xenograft	–	baseline: vehicle	minimum effective dose	45 mg/m²
thrombin	sandwich ELISA	human, platelet-rich plasma	5 units/mL, 5 min, 37 °C	–	chemerin level	78 ± 0.7 ng/mL
CCCCCSc1nnc(COc2ccc3c(c2)NC(=O)CC3)o1	forced swimming test	mice	40 mg/kg, 0.5 h	baseline: control	immobility duration decrease	32.5%

Repeated from above:
Molecule	assay	system	conditions	how to read	measurement	value
CC1(C)CCC(CN2CCN(c3ccc(C(=O)NS(=O)(=O)c4ccc(NCC5CCOCC5)c([N+](=O)[O-])c4)c(Oc4cnc5[nH]ccc5c4)c3)CC2)=C(c2ccc(Cl)cc2)C1	cell kill, PI exclusion flow cytometry	normal CD3+ T lymphocytes, dog, peripheral blood	24 h	–	EC50	525 ± 650 nM
CCOC(=O)[C@H](C)C[C@@H](Cc1ccc(-c2ccccc2)cc1)NC(=O)CCC(=O)O	–	female C57BL/6JRj mice	oral, 0.7 nmol/g, 10 min, together with: amino acids 34 mg oral	baseline: vehicle	increase in glucagon response	41%
